Results of several laboratories.
Parts stem from different laboratories: compare values within a part only. Changes are numbered by the printed parent chain.

Block 1 — technique: RNA Bind-n-Seq; form: RNA; matrix: in vitro; tested at: 365 nM; reference: no-protein control; direction: higher = stronger binding
Target: RNA binding protein fox-1 homolog 2, RRM domain, GST-SBP tag (RBFOX2, Homo sapiens, UniProt O43251-10, residues 100-194)
Notes: natural RNA segment, single round, ends assumed
Construct (chain): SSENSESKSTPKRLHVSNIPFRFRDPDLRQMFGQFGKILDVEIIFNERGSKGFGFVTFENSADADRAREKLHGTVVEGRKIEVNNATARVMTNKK
`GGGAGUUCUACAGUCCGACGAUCAGUGUGGUGGGAUGGCUGUCUUCUCUCUCCUUGUUACCUCCCUAGGAAAGAAGGGGUUGCUUUAUGGAUAAGCCUGUAGAAUCGGCUGCUUCCUAUGACUCCCUGGCUGCUGGAAUUCUCGGGUGCCAA`: “RBNS enrichment (R)” 0.285.
Under “RBNS enrichment (R)”, `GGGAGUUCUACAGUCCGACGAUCUAGGUGCCAAUUUGGGUGGGGGAGGAAGGAACAAUUACAAGAUCCCCAUCUGUCUGCCCAUGCCACCUAAACAAGUCAGGACUCCAAUUGGAUUUUGAAGUUAUUUUAAUUGGAAUUCUCGGGUGCCAA` is recorded as 0.387.
Under “RBNS enrichment (R)”, `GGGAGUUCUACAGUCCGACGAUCCAAUGGAUUACCAUCUUUAUUGCUGUAAUGUGUUAAGCAUUAUAUGCUAGUAGAAUCUAGUUUAAUUGUUUCAGGUGGAAAGUAUUCUUUGAGUUUCCAUAUUGAAUGUGUGGAAUUCUCGGGUGCCAA` is recorded as 0.39.
`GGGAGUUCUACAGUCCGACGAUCAGCAAAAUUGUGCUAAAGGCUUUUCUACUCUGAGAUCUCAAUGCGAAAUGAAAACUCAGGCAGUUUAGUCCAUAGUGGUACUAUUUUGAUGAUAUUUUCCAUUAAUAAAAUGGAAUUCUCGGGUGCCAA`: “RBNS enrichment (R)” 0.363.
Under “RBNS enrichment (R)”, `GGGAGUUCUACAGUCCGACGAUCCAGACUAUGUACAUAAUCUGUAUAUGGGAAAAGAAAGAGCGAAAUUACCUUACUUAAGGAUAAUAGGACAAGACAAAUUACAGAUUGUCUCAGAGAAAACAAAUGAGUUAUGGAAUUCUCGGGUGCCAA` is recorded as 0.347.
`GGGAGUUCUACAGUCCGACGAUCCAGUGACCCACAUUGAUGAGUGGUCUGAGCAGCUGGUGGGUUACUUUACCCAGUGUGUUCCUGCAUUGUUUAGUGUGGAACUGUGGGCAGGUGCCGAGUGUCAGAUAGCAUGGAAUUCUCGGGUGCCAA`: “RBNS enrichment (R)” 6.
`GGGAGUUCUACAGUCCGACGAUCGAAUCAGUCCCCUGUGGAUACCAAGGUACAACUGUAUUUAUUAACGCUUACUAGAUGUGAGGAGAGUCUGAAUAUUUUCAGUGAUCUUGGCUGUUUCAAAAAAAUCUAUUUGGAAUUCUCGGGUGCCAA` — result for “RBNS enrichment (R)”: 0.623.
`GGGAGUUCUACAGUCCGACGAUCCCCUGGUGCUUUCAGCUUCCCCCAGCUAGGCCUGACCCUGGCUCUUGCUGUAGGCCACAUGCUGAAGGCAAGCCAACCCGAGGACGAGGACAGUCCCUGGAUCCUACACAUGGAAUUCUCGGGUGCCAA`: “RBNS enrichment (R)” 0.245.
Under “RBNS enrichment (R)”, `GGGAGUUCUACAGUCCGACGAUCUAUUGCUCUUCUGAAGUAAGAUUUUUCUACACCGGUAGCCUUCGCUGUCUGUCAGUCAGGACCUUCUGGUAUAGGUGAUGUAAAAUAACCGUACAAUAUUAAUGCAUGCGUGGAAUUCUCGGGUGCCAA` is recorded as 10.1.
`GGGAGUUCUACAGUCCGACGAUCAGGCACUUUCUGUUUUUUUUAAAAAAAUAAUAAGGUCUCAUGGCUUCAUUUAGAGACCACAGUAACAACAGCAGCCCACCAAUCAGAGAAGCUGGUUGUUAUUAACCAAGUGGAAUUCUCGGGUGCCAA` — result for “RBNS enrichment (R)”: 0.361.
For `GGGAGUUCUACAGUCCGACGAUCACUGAGAAGAUCUUUUCUUUUUCCUUUUUUUGGUAACAAGACUUAGAAGGAGGGCCCAGGCACUUUCUGUUUGAACCCCUGUCAUGAUCACAGUGUCAGAGACGCGUCCUUGGAAUUCUCGGGUGCCAA`, “RBNS enrichment (R)” read 0.189.
`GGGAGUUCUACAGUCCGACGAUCUGUGUGUGUGUGUGUGUGUGUGGAUGUAUUGACCUGUGUUUCCCAAGACAGCAGGUGCCACGGCCCGCCCCGCCUGCCAGCCCGAAUUCCCGUUCUCCUGUGUCUACUAAUGGAAUUCUCGGGUGCCAA` — result for “RBNS enrichment (R)”: 1.3.

Block 2 — target: CCND2, cyclin fold, Cln2 fusion (human); technique: yeast growth competition, sequencing; matrix: yeast; notes: weak parent motif; reference: not given; direction: higher = stronger binding
Starting sequence: SLBP docking peptide (human); ARYKRKLLINDFG; partner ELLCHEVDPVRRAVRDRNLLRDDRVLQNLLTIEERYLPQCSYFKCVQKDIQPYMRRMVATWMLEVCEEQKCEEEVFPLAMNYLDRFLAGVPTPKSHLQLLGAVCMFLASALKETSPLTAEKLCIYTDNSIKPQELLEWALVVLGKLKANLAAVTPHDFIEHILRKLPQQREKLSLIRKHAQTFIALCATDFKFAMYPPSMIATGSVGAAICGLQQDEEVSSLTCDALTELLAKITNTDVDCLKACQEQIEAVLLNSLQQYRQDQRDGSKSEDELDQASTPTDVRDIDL
For `G13F`, “normalised enrichment score” read 0.255.
`K4P`: “normalised enrichment score” -0.543.
`R5V`: “normalised enrichment score” 0.476.
For `K4M`, “normalised enrichment score” read -0.027.
Under “normalised enrichment score”, `L7M` is recorded as 0.53.
`K4C`: “normalised enrichment score” -0.359.
`R5K`: “normalised enrichment score” 0.288.

Block 3 — technique: protein binding microarray; form: double-stranded DNA, one strand shown; matrix: in vitro; tested at: not given; reference: not given; direction: higher = stronger binding
Target: Histone acetyltransferase KAT6A, both winged helices, GST fusion (KAT6A, Homo sapiens, UniProt Q92794, residues 1-181)
Notes: 8-mer, flanks averaged, mean of 2 arrays, mostly near background
Target sequence (chain): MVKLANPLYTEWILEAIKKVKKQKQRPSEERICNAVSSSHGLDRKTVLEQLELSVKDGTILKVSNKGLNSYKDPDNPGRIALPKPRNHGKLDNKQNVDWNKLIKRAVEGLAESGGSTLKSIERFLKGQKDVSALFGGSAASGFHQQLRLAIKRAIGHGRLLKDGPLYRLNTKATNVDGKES
For `TCATATCA`, the E-score was -0.0737.
`ACGCGGCG` has an E-score of 0.353.
For `GTTGTTAA`, the E-score was 0.0211.
`AACAGCCC` has an E-score of -0.107.
With `ATGGCCAG` the E-score was -0.137.
For `AGCCGCCT`, the E-score was 0.202.
With `AATCAATC` the E-score was 0.00578.
`ACATTTGA` gave an E-score of -0.0138.
For `CAGCTGAA`, the E-score was -0.103.
`GTACGCAA` gave an E-score of 0.0763.
For `CTCTTGAA`, the E-score was -0.157.
With `AGCGTCCG` the E-score was 0.196.
With `ATCCTGTC` the E-score was -0.069.
With `ACGTTACC` the E-score was 0.056.
The E-score of `AAGCCCCA` is reported as -0.341.
With `AGCCCGGG` the E-score was 0.203.
`CACCCTAG` has an E-score of -0.132.
The E-score of `CAACACCC` is reported as -0.153.
The E-score of `TACAAAAA` is reported as 0.0767.
`CGGTGCGC` gave an E-score of 0.262.
With `ACATTCCC` the E-score was 0.03.

Block 4 — technique: protein-binding microarray; form: double-stranded DNA, one strand shown; matrix: in vitro; tested at: 250 nM; notes: 60-bp whole probe; together with: salmon DNA 0.4 mg/ml; reference: random background probes; direction: higher = stronger binding; shared flanks, not repeated: GCCTAGCAC … GTCTTGATTCGCTTGACGCTGCTG
Target: Interferon regulatory factor 7, full length, phosphomimetic (IRF7, Homo sapiens, UniProt Q92985, residues 1-503, S101K/S471D/S472D/S475D/S476D/S477D/S483D/S484D/S487D)
Sequence of UniProt Q92985 (whole entry, unmodified, looked up): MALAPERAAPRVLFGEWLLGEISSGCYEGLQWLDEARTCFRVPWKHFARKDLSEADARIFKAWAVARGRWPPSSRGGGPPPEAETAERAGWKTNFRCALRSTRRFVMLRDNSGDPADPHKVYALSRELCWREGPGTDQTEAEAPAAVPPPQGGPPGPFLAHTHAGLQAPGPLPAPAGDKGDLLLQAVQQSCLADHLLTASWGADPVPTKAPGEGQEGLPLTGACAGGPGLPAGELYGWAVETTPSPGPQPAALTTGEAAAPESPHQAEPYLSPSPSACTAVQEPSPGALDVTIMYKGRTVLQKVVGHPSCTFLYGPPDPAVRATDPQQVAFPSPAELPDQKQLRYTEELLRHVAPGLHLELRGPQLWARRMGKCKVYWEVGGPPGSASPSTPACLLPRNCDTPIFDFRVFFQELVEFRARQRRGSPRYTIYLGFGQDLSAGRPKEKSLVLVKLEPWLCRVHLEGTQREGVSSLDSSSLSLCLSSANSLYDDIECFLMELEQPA
`TATCAGTTTAATATCTAAGAGTGCTAG` gave a log fluorescence of 0.231 z-score.
`CTTGCTTTCCAATTCTCTTTGTGCTAG` has a log fluorescence of 1.37 z-score.
For `GACGATATCGGGTATCGAGATGTGCTA`, the log fluorescence was 0.0847 z-score.
The log fluorescence of `TTAGGACTGGGGACTGGGTTGGTGCTA` is reported as -0.289 z-score.
`TGGGGGGATCAGGGAAACAGGTGCTAG` gave a log fluorescence of 3.06 z-score.
The log fluorescence of `TTCGGTCTCCTTATCCTTTAGTGCTAG` is reported as 0.746 z-score.
`GACGGACTGCTTATCCTGGCGTGCTAG` has a log fluorescence of -0.518 z-score.
With `TCAAGGTTTTCTCTGGTACTGTGCTAG` the log fluorescence was 0.21 z-score.
`TCAAGTTTTCCTCTGTCACTGTGCTAG` has a log fluorescence of 1.47 z-score.
`ACCTGTATATCTTCAGCGGGGTGCTAG` has a log fluorescence of -0.11 z-score.
`GGCGGTCTCCTACTGCTGACGTGCTAG` gave a log fluorescence of -0.915 z-score.

Single results of other studies
`PhoQ, residues 284 288 289 292 302 303 SVTLVV` gave a fold induction of 1.3 (PhoP, residues 12 14 15 18 19 AQCLL (Escherichia coli, UniProt P23836); Sort-seq, item: YFP reporter; E. coli; PhoQ-PhoP variant library, together with: 10 µM Mg2+; reference: high Mg2+ state, higher = stronger signaling).
